# Measured values of several laboratories.
# Each numbered part is a random draw from the data of one study; scales do not carry over between parts.

# Series 1 — read-out: enzyme activity; mode: inhibitor; concentration: 20 µM; notes: hit confirmation
# Target: Replicase polyprotein 1ab, main protease (rep, Severe acute respiratory syndrome coronavirus 2, UniProt P0DTD1)
Compound,inhibition
N#Cc1c(-c2ccccc2)cc(-c2cc(Br)ccc2O)[nH]c1=O,7.9%
COC(=O)C(N)CS (centres unmarked),9.4%
CCn1c(-c2ccc(Cl)cc2)n[nH]c1=O,68.9%
CC(C)(C)c1cc(O)c(C(C)(C)C)cc1O,-1.8%

# Series 2 — mode: inhibitor; concentration: 20 µM
# Target: Replicase polyprotein 1ab, nsp13 helicase (rep, Severe acute respiratory syndrome coronavirus 2, UniProt P0DTD1)
SMILES,inhibition [%]
COC(=O)c1ccccc1O,3.19
COc1nc2ccc(Br)cc2cc1[C@@H](c1ccccc1)[C@@](O)(CCN(C)C)c1cccc2ccccc12,92.3
CC1=NN(c2ccc(C(=O)O)cc2)C(=O)/C1=C\c1ccc(-c2cc(C)c(C)cc2[N+](=O)[O-])o1,56
C[C@]12CCC(=O)C=C1CC[C@@H]1[C@@H]2[C@@H](O)C[C@@]2(C)[C@H]1CC[C@]2(O)C(=O)COC(=O)CCC(=O)O,9.68
c1cc(OCCN2CCCCC2)cc(-c2n[nH]c3ccc(-c4nnc[nH]4)cc23)c1,10.7
Oc1cc(Cl)ccc1Oc1ccc(Cl)cc1Cl,-0.02
NC(=O)c1cccc(N)c1,2.97
CCOC(=O)C1=CCCC[C@H]1S(=O)(=O)Nc1ccc(F)cc1Cl,9.05
CN1CCN(C2=Cc3ccccc3Oc3ccc(Cl)cc32)CC1,6.56
CC1=CC[C@@H](C(C)(C)O)C[C@@H]1O,0.48
C=C(c1ccc(C(=O)O)cc1)c1cc2c(cc1C)C(C)(C)CCC2(C)C,3.54
O=C(OC(C(F)(F)F)C(F)(F)F)N1CCC(C(O)(c2ccc3c(c2)OCO3)c2ccc3c(c2)OCO3)CC1,4.2
C[C@@H]1CC2C3CCC4=CC(=O)C=C[C@]4(C)[C@@]3(F)[C@@H](O)C[C@]2(C)[C@H]1C(=O)CO (some centres unmarked),1
CC(C)(C)[N+]([O-])=Cc1ccc(S(=O)(=O)O)cc1S(=O)(=O)O,8.96
CCC(C)(Oc1ccc(C2(c3ccc(OC(C)(CC)C(=O)O)cc3)CCCCC2)cc1)C(=O)O (centres unmarked),-5.41
NC(N)=Nc1nc(CSCCN/C=N/S(=O)(=O)c2ccc(Br)cc2)cs1,2.72
N#Cc1cc(F)cc(-c2nc(-c3ccc(F)cn3)no2)c1,10.8
NC(=O)N1C(=O)/C(=C(\O)c2cccs2)c2cc(Cl)ccc21,-0.67
O=[N+]([O-])O[C@@H]1CO[C@H]2[C@@H]1OC[C@@H]2O,3.88
NC(=S)N/N=C/c1ncccc1N,-0.38
CC[N+](C)(CC)CC(=O)Nc1c(C)cccc1C,5.91
CCC(=O)O[C@]1(C(=O)CCl)[C@@H](C)C[C@H]2[C@@H]3C[C@H](F)C4=CC(=O)C=C[C@]4(C)[C@@]3(F)[C@@H](O)C[C@@]21C,8.37
O=C(Nc1ccc(Cl)cc1)Nc1ccc(Cl)c(Cl)c1,2.11
Cc1c(C)c2c(c(C)c1O)CCC(C)(COc1ccc(CC3SC(=O)NC3=O)cc1)O2 (centres unmarked),2.36
CC(C)C[C@H](NC(=O)CN(C)C(=O)[C@H](Cc1ccccc1)NC(=O)[C@H](Cc1ccccc1)NC(=O)[C@H](CCC(N)=O)NC(=O)[C@H](CCC(N)=O)NC(=O)[C@@H]1CCCN1C(=O)[C@H](CCCCN)NC(=O)[C@@H]1CCCN1C(=O)[C@@H](N)CCCN=C(N)N)C(=O)N[C@@H](CCS(C)(=O)=O)C(N)=O,5.2

# Series 3 — method: RNA Bind-n-Seq; form: RNA; sample: in vitro; concentration: 365 nM; baseline: no-protein control; direction: higher = stronger binding
# Target: RNA binding protein fox-1 homolog 2, RRM domain, GST-SBP tag (RBFOX2, Homo sapiens, UniProt O43251-10, residues 100-194)
# Notes: natural RNA segment, single round, ends assumed
# Shared flanks, not repeated: GGGAGUUCUACAGUCCGACGAUC … UGGAAUUCUCGGGUGCCAA
# Target sequence (chain): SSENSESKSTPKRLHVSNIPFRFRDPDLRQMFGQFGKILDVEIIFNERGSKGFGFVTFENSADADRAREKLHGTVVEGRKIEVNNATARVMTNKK
Strand,RBNS enrichment (R)
CCCUGCCUGGACAUUGCAUUUCCCCAUUUAUGGUGCUCCGUAUUCUGGCAUUAUGCAGCAGCCUCACACACCUGUCCUCUCCUUCUUCAUGUCCUACAGUUCUGCUAUCA,0.8
GACAGGCAGCCAUUGAUGGGAGCAAAGCUUGCAGGUGCCUGGAGGUGGUCCCACCAUUGCCUGCAGAUGUCCUUCCUCUGUUCACAGUUAGGUUUAGUGAGCAUUUCAUG,0.379
GCUGUUAGGGCAGGAAGGGGCAAAAGGAAGACUUGGGUAGUAAUCUGGGGGUUCAGAUGGGUAGCACUAAGCCAGCUGGCCUAAAGAUGCAAUAAGUUCCUAGGUAGUCU,0.552
CCUGCGUCAAGCAGUGGGAGAGGGCAGUGCCCGGUGCCCUGGUGCUCCCAGCUGCCCUCCUGCUUCGGGCCUGGGCCGAGGGCCUUGUGUAGGCCAUGUUCCUCGGGCAG,0.357
UUCAUUUCAUUAGUUGGACUUUUAAAGCAUUAUUUAUACACCAUAGAAAUAUUUCUGAACAUAUCAUGUAAUUUUUUUAAGAUAACUGUGAAAACAUUACAUACAUGUAU,0.666
ACUUGAAUGGAACAGAAGCAAGCCUUAUGUUUUGGAAGGUCUGCGGUAAAAUGCUGUGACUGUUUACUUUCAAUUGCAUUGUGUGUUGCCUGUGACUGCUUUCAAACGCU,18.2
UGCCAGGGUCCCCUGGGAAGAUGCCCCCAAGACACCUGCCCCAAGUGGGUGGAUAUCUGCCUUCCUGCUGCAAGUGGAGGCAGGUCCAGCAGCCCCUCUUCAGAGCCCCU,0.296
GAGUGUCUUUAGCCCCUGCCCUACUUUUCCCUCUCUGACUUUUUUCCCAGGUAGCUUAGUGUUUAACAUCUCUCUCACCAUCCUGAUGCAGUAGCAUGGCUAUUGCUGAG,1.28

# Series 4 — method: protein binding microarray; form: double-stranded DNA, one strand shown; sample: in vitro; concentration: not given; baseline: not given; direction: higher = stronger binding
# Target: Histone acetyltransferase KAT6A, winged helix 2, GST fusion (KAT6A, Homo sapiens, UniProt Q92794, residues 85-181)
# Notes: 8-mer, flanks averaged, mean of 2 arrays, mostly near background
# Construct (chain): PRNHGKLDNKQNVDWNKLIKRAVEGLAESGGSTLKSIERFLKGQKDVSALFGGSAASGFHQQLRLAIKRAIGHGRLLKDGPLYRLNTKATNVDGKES
Strand,E-score
CGTATAAA,0.15
ACGTCCGA,-0.167
GCAGTGGC,0.135
CTATCAAA,-0.0162
GGTTGAGA,0.0575
GGACCACC,0.00491
GTGTAAAC,0.0904
TCCGCAGA,0.105

# Series 5 — cell line: HEK-293T-ACE2; concentration: concentration not given; baseline: vehicle
Compound,cell number
C=C1c2c(Cl)ccc(O)c2C(=O)C2=C(O)[C@]3(O)C(=O)C(C(N)=O)=C(O)[C@@H](N(C)C)[C@@H]3[C@@H](O)[C@H]12.O=C(O)c1cc(S(=O)(=O)O)ccc1O,99.7%
CCCCCOc1ccc(-c2cc(-c3ccc(C(=O)N[C@H]4C[C@@H](O)[C@@H](O)NC(=O)[C@@H]5[C@@H](O)[C@@H](C)CN5C(=O)[C@H]([C@H](O)CC(N)=O)NC(=O)[C@H]([C@H](O)[C@@H](O)c5ccc(O)c(OS(=O)(=O)[O-])c5)NC(=O)[C@@H]5C[C@@H](O)CN5C(=O)[C@H]([C@@H](C)O)NC4=O)cc3)no2)cc1.[Na+],103%
COCCc1ccc(OCC(O)CNC(C)C)cc1.COCCc1ccc(OCC(O)CNC(C)C)cc1.O=C(O)CCC(=O)O (centres unmarked),101%
COS(=O)(=O)[O-].C[N+]1(C)CCC(=C(c2ccccc2)c2ccccc2)CC1,103%
CC[C@H]1OC(=O)[C@H](C)[C@@H](O[C@H]2C[C@@](C)(OC)[C@@H](O)[C@H](C)O2)[C@H](C)[C@@H](O[C@@H]2O[C@H](C)C[C@H](N(C)C)[C@H]2O)[C@](C)(O)C[C@@H](C)CN(C)[C@H](C)[C@@H](O)[C@]1(C)O,99.4%

# Some of these lines once more (series 3):
Strand,RBNS enrichment (R)
ACUUGAAUGGAACAGAAGCAAGCCUUAUGUUUUGGAAGGUCUGCGGUAAAAUGCUGUGACUGUUUACUUUCAAUUGCAUUGUGUGUUGCCUGUGACUGCUUUCAAACGCU,18.2
UGCCAGGGUCCCCUGGGAAGAUGCCCCCAAGACACCUGCCCCAAGUGGGUGGAUAUCUGCCUUCCUGCUGCAAGUGGAGGCAGGUCCAGCAGCCCCUCUUCAGAGCCCCU,0.296
CCUGCGUCAAGCAGUGGGAGAGGGCAGUGCCCGGUGCCCUGGUGCUCCCAGCUGCCCUCCUGCUUCGGGCCUGGGCCGAGGGCCUUGUGUAGGCCAUGUUCCUCGGGCAG,0.357
GACAGGCAGCCAUUGAUGGGAGCAAAGCUUGCAGGUGCCUGGAGGUGGUCCCACCAUUGCCUGCAGAUGUCCUUCCUCUGUUCACAGUUAGGUUUAGUGAGCAUUUCAUG,0.379
CCCUGCCUGGACAUUGCAUUUCCCCAUUUAUGGUGCUCCGUAUUCUGGCAUUAUGCAGCAGCCUCACACACCUGUCCUCUCCUUCUUCAUGUCCUACAGUUCUGCUAUCA,0.8
